Measurements of several laboratories.
Compare with care: the assays were run in different laboratories. ± marks the error that the study gave.
SIRT2: NAD-dependent protein deacetylase sirtuin-2 (SIRT2, Homo sapiens, UniProt Q8IXJ6)
BRD4 BD1: Bromodomain-containing protein 4, BD1 (BRD4, Homo sapiens, UniProt O60885)
Histone acetyltransferase RTT109 with Vps75: Histone acetyltransferase RTT109, with Vps75 (Saccharomyces cerevisiae, UniProt Q07794)
CYP2C8: Cytochrome P450 2C8 (CYP2C8, Homo sapiens, UniProt P10632)
LYN: Tyrosine-protein kinase Lyn (LYN, Homo sapiens, UniProt P07948)
serine/threonine phosphatase Stp1: serine/threonine phosphatase Stp1 (Staphylococcus aureus, UniProt A0A0H2XF73)
UCHL1: Ubiquitin carboxyl-terminal hydrolase isozyme L1 (UCHL1, Homo sapiens, UniProt P09936)
Faah: Fatty-acid amide hydrolase 1 (Faah, Rattus norvegicus, UniProt P97612)

SMILES | target | test | test system | conditions | IC50 [µM]
C=C(NC(=O)[C@H](CCCCNC(=S)CCCCCCCCCCCCC)NS(C)(=O)=O)C(=O)N[C@@H](CCCNC(=N)N)C(N)=O | SIRT2 | enzyme activity, inhibitor |  |  | 0.14 ± 0.03
Cc1cc([C@@H](C)Nc2ccccc2C(=O)O)c2nc(N3CCC(F)(F)CC3)c(C#N)c(=O)n2c1 | Phosphatidylinositol 4,5-bisphosphate 3-kinase catalytic subunit alpha isoform, with p85 alpha (PIK3CA, Homo sapiens, UniProt P42336, E545K) | enzyme activity, inhibitor, ADP-Glo |  | together with: 10 µM ATP | 1.51
CN(C)C(=O)c1cc2cnc(Nc3ccc(-c4ccc5c(=O)cc(N6CCOCC6)oc5c4)cc3)nc2n1C1CCCC1 | BRD4 BD1 | inhibitor |  |  | > 10
O=S(=O)(c1ccc(Br)c2nsnc12)N1CCOCC1 | Histone acetyltransferase RTT109 with Vps75 | enzyme activity, inhibitor, HTS, CPM-based, dose response |  |  | > 125
CN1CCN(c2cc(=O)c3ccc(Nc4ncc5cc(C(=O)N(C)C)n(C6CCCC6)c5n4)cc3o2)CC1 | Bromodomain-containing protein 4, BD2 (BRD4, Homo sapiens, UniProt O60885) | inhibitor |  |  | > 10
O=C(Cc1ccc(-c2ccccc2)cc1)NC1CS(=O)(=O)c2ccccc21 (centres unmarked) | Histone acetyltransferase RTT109 with Vps75 | enzyme activity, inhibitor, HTS, CPM-based, dose response |  |  | > 125
CC(C)=CCc1c(O)cc2c(c1O)C(=O)C[C@@H](c1ccc(O)cc1)O2 | CYP2C8 | inhibitor |  | pH 7.4 | 1.9 ± 0.1
Nc1ncnc2c1ncn2[C@@H]1O[C@H](COP(=O)(O)OP(=O)(O)OP(=O)(O)O)[C@@H](O)[C@H]1O | Inosine-5'-monophosphate dehydrogenase 2 (IMPDH2, Homo sapiens, UniProt P12268) |  |  |  | 45
Cc1c(-c2ccccc2)oc2c(C(=O)O)cccc2c1=O | Anoctamin-1 (Ano1, Mus musculus, UniProt Q8BHY3) | chloride current | HEK293 transfected | at +80 mV | 28.3
CCn1c(-c2nc3ccc(C(=O)N4CCCC(N)C4)cc3n2C)cc2ccccc21 (centres unmarked) | Substance-P receptor (TACR1, Homo sapiens, UniProt P25103) | intracellular calcium, antagonist, luminescence |  |  | > 39.8
CCCCCCCCCCCCNC(=S)NCCCC[C@H](NS(C)(=O)=O)C(=O)N[C@H](C)C(=O)N[C@@H](CCCNC(=N)N)C(=O)O | SIRT2 | enzyme activity, inhibitor |  |  | 0.11 ± 0.01
N#C[C@H](C[C@@H]1CCCNC1=O)NC(=O)[C@H](CC1CC1)NC(=O)c1cc2cccc(Cl)c2[nH]1 | CYP2C8 | enzyme activity, time-dependent inhibitor | human liver microsomes | 30 min NADPH preincubation, together with: amodiaquine N-deethylation | 5.5
CN(C)C(=O)c1cc2cnc(Nc3cncc(-c4cccc5c(=O)cc(N6CCOCC6)oc45)c3)nc2n1C1CCCC1 | BRD4 BD1 | inhibitor |  |  | > 10
CC#CC(=O)N1CCC[C@H]1c1nc(-c2ccc(C(=O)Nc3ccccn3)cc2)c2c(N)nccn12 | LYN |  |  |  | > 5
COc1ccc(-c2cc(=O)c3ccc(Nc4ncc5cc(C(=O)N(C)C)n(C6CCCC6)c5n4)cc3o2)cc1 | BRD4 BD1 | inhibitor |  |  | 1.37
CN1CCN(c2ccc(Nc3ncc4cc(C#N)c(=O)n(C5CCCC5)c4n3)cc2)CC1 | Serine/threonine-protein kinase PLK1 (PLK1, Homo sapiens, UniProt P53350) |  |  |  | 2.79
O=C(O)c1ccc2nc(-c3ccc(OCc4ccccc4COc4ccc(-c5nc6ccc(C(=O)O)cc6[nH]5)cc4)cc3)[nH]c2c1 | Beta-lactamase (Escherichia coli, UniProt Q8VNN1) | enzyme activity, inhibitor |  |  | 210 ± 25
Cc1cnc(-c2ccc(-c3ccc(NC(=O)Nc4c(F)cc(F)cc4F)cc3F)c3c2C(=O)NC3)[nH]1 | LYN | enzyme activity, inhibitor, mobility shift |  | together with: ATP 1 mM | 0.0177
COc1c(O)cc2c(c1O)C(=O)c1c(cc(C)c(O)c1OC)C2=O | serine/threonine phosphatase Stp1 | enzyme activity, inhibitor |  | together with: pNPP | > 303
O=S(=O)(Nc1ccc(O)c(Br)c1)c1ccc2ccccc2c1 | Histone acetyltransferase RTT109 with Vps75 | enzyme activity, inhibitor, HTS, CPM-based, dose response |  |  | > 125
N#CC(=Cc1ccc(F)c([N+](=O)[O-])c1)C(=O)Nc1ccc(F)cc1 | UCHL1 | inhibitor, ubiquitin-rhodamine cleavage |  | 2 h preincubation | > 200
COc1ccc2c(=O)[nH]c3c(nnn3Cc3ccc(C)cc3)c2c1 | Protein mono-ADP-ribosyltransferase PARP12 (PARP12, Homo sapiens, UniProt Q9H0J9) |  |  |  | 1.29
CSc1ccc(-c2nsc(N)n2)cc1 | Histone acetyltransferase RTT109 with Vps75 | enzyme activity, inhibitor, HTS, CPM-based, dose response |  |  | > 125
Cc1ccc2[nH]nc(-c3nnc(Nc4ccc(Cl)c(Cl)c4)s3)c2c1 | thymidine phosphorylase | enzyme activity, inhibitor, spectrophotometric |  | pH 7.5, 25 °C | 8.31 ± 1.25
O=[N+]([O-])c1c(SCCO)ccc2nsnc12 | Histone acetyltransferase RTT109 with Vps75 | enzyme activity, inhibitor, HTS, CPM-based, dose response |  |  | > 125

SMILES | target | test | test system | conditions | IC50 [µM]
COc1ccc(Cc2cnc(NC(=O)CCl)s2)cc1 | UCHL1 | inhibitor, ubiquitin-rhodamine cleavage |  | 2 h preincubation | 91
Cc1nc(Nc2ncc(C(=O)Nc3c(C)cccc3Cl)s2)cc(N2CC[C@H](O)C2)n1 | Tyrosine-protein kinase Lyn, isoform A (LYN, Homo sapiens, UniProt P07948) | enzyme activity, inhibitor |  |  | 0.00016
COc1cc(/C=C2\CCCC(C3(O)C(=O)Nc4ccc(Br)cc43)C2=O)cc(OC)c1OC (centres unmarked) | ERK | enzyme activity |  |  | 11
O=c1ccc2c(OCCCCOc3cccc(O)c3)c3ccoc3cc2o1 | Potassium voltage-gated channel subfamily A member 3 (Kcna3, Mus musculus, UniProt P16390) | ion current, blocker, whole-cell patch clamp | L929 expressing Kcna3 |  | 0.14
CC[C@@H]1[C@H](F)C(=O)N[C@@H]1COc1nccc2cc(C(N)=O)c(OC)cc12 | Serine/threonine-protein kinase tousled-like 2 (TLK2, Homo sapiens, UniProt Q86UE8) | ATP-site probe binding, inhibitor, ActivX ATP probe profiling | THP-1 cell lysate | probe site Lys1 | 1.8
CC[C@@](N)(c1cnc(C(F)(F)F)c(Cl)c1)c1c2ncn(C3CC3)c(=O)c2nn1C | Dihydroorotate dehydrogenase (Canis lupus familiaris, UniProt A0A8I3MWX2) | enzyme activity, inhibitor, DCIP reduction |  |  | > 30
CCOC(=O)c1c(NC(=O)CNC(C)C)sc2c1CCCCC2 | Glycogen synthase kinase-3 beta, with Nav1.6 (GSK3B, Homo sapiens, UniProt P49841) | Nav1.6-GSK3β assembly, inhibitor, split-luciferase complementation | HEK293 cells (transfected) |  | 26.2
Cc1ccc(S(=O)(=O)c2ccc([N+](=O)[O-])o2)cc1 | OTU domain-containing protein 7B (OTUD7B, Homo sapiens, UniProt Q6GQQ9) | deubiquitinase activity, inhibitor, MALDI-TOF DUB |  | 30 °C, 35 min pre-incubation | 0.97
CN(C)C(=O)c1cc2cnc(Nc3ccc(-c4ccc5c(=O)cc(N6CCNCC6)oc5c4)cc3)nc2n1C1CCCC1 | BRD4 BD1 | inhibitor |  |  | > 10
O=C(Nc1cccnn1)N1CCC(=Cc2cccc(Oc3ccc(C(F)(F)F)cn3)c2)CC1 | Faah | enzyme activity, inhibitor | rat brain membranes | 0 min preincubation | 0.0039
COc1ccc(-c2nnc(S)[nH]2)cc1 | Histone acetyltransferase RTT109 with Vps75 | enzyme activity, inhibitor, HTS, CPM-based, dose response |  |  | 55 ± 2
COc1c(O)cc2occ(-c3ccc(O)cc3)c(=O)c2c1O | serine/threonine phosphatase Stp1 | phosphatase activity, inhibitor |  |  | > 333
COc1c(Cl)cc(Cl)cc1C=C(C#N)C(N)=O | UCHL1 | inhibitor, ubiquitin-rhodamine cleavage |  | 2 h preincubation | > 200
O=C(Nc1cnccc1Cl)N1CCN(Cc2ccc3c(c2)OC(F)(F)O3)CC1 | Faah | enzyme activity, inhibitor | rat brain membranes | 5 min preincubation | 0.365
O=C(Nc1ccccc1Oc1nc2ccccc2n2cnnc12)c1cccs1 | Catenin beta-1, with BCL9 HD2 (CTNNB1, Homo sapiens, UniProt P35222) | BCL9 binding, inhibitor, AlphaScreen |  |  | 7.38
CCN(c1ccccc1)S(=O)(=O)c1ccc(Cl)c(C(=O)Nc2ccccc2N2CC(CC)(CC)CC2=O)c1 | N-myristoyltransferase (Cryptosporidium parvum, UniProt Q5CV46) | enzyme activity, inhibitor |  |  | > 125
NC/C(=C\F)COc1cccc(Cn2c(=S)[nH]c(=O)c3[nH]cnc32)c1 | CYP2C8 | enzyme activity, inhibitor |  | CYP2C8 screen | > 10
Cc1c(Cl)cccc1Nc1ccccc1C(=O)O | D14, with SMXL7 (Arabidopsis thaliana, UniProt Q9SQR3) | complex formation, inhibitor, TR-FRET | Arabidopsis thaliana, AtD14-mEGFP 100 nM | 300 min, together with: (+)-GR24 and 3 µg/mL FLAG-AtSMXL7 | 1.65
Cn1c(SC2=CS(=O)(=O)c3ccccc32)nc2ccccc21 | Histone acetyltransferase RTT109 with Vps75 | enzyme activity, inhibitor, HTS, CPM-based, dose response |  |  | > 125
C[C@@H]1O[C@H](CNS(=O)(=O)c2ccc(C#CC3CC3)s2)[C@@H](O)[C@H](O)[C@@H]1O | fucose-binding lectin LecB (Pseudomonas aeruginosa, UniProt A0A0H2ZE85) |  |  |  | 0.28 ± 0.08
Cc1ccc2[nH]nc(-c3nnc(Nc4ccc(F)cc4Cl)s3)c2c1 | thymidine phosphorylase | enzyme activity, inhibitor, spectrophotometric |  | pH 7.5, 25 °C | 6.82 ± 0.87
O=C(CCc1ccccc1Cl)NC1CS(=O)(=O)c2ccccc21 (centres unmarked) | Histone acetyltransferase RTT109 with Vps75 | enzyme activity, inhibitor, HTS, CPM-based, dose response |  |  | > 125
CC1(C)CC[C@]2(C(=O)O)CC[C@]3(C)C(=CC[C@@H]4[C@@]5(C)C[C@@H](O)[C@H](O)C(C)(C)[C@@H]5CC[C@]43C)[C@@H]2C1 | Angiotensin-converting enzyme (ACE, Oryctolagus cuniculus, UniProt P12822) | enzyme activity |  |  | 25.7 ± 0.99
CN1C(=O)CCC(N2C(=O)c3cccc(NCCCCCCNC(=O)c4ccc(Oc5ccc(Cl)cc5NS(=O)(=O)c5ccc(Cl)c(C(F)(F)F)c5)cc4)c3C2=O)C1=O (centres unmarked) | Protein cereblon, with DDB1 (CRBN, Homo sapiens, UniProt Q96SW2) | binding, HTRF competition |  |  | 1.81
CC(=O)c1cnc2ccc(-c3cc(Cl)c(O)c(Cl)c3)nc2c1N[C@H]1CC[C@H](CN(C)C)CC1 | Receptor-like protein kinase FERONIA (FER, Arabidopsis thaliana, UniProt Q9SCZ4, K565A) | kinase activity, inhibitor, ADP-Glo |  |  | > 100

For quick reference, copied from above:
SMILES | target | test | test system | conditions | IC50 [µM]
Cc1c(Cl)cccc1Nc1ccccc1C(=O)O | D14, with SMXL7 (Arabidopsis thaliana, UniProt Q9SQR3) | complex formation, inhibitor, TR-FRET | Arabidopsis thaliana, AtD14-mEGFP 100 nM | 300 min, together with: (+)-GR24 and 3 µg/mL FLAG-AtSMXL7 | 1.65
Cc1cc([C@@H](C)Nc2ccccc2C(=O)O)c2nc(N3CCC(F)(F)CC3)c(C#N)c(=O)n2c1 | Phosphatidylinositol 4,5-bisphosphate 3-kinase catalytic subunit alpha isoform, with p85 alpha (PIK3CA, Homo sapiens, UniProt P42336, E545K) | enzyme activity, inhibitor, ADP-Glo |  | together with: 10 µM ATP | 1.51
Cc1nc(Nc2ncc(C(=O)Nc3c(C)cccc3Cl)s2)cc(N2CC[C@H](O)C2)n1 | Tyrosine-protein kinase Lyn, isoform A (LYN, Homo sapiens, UniProt P07948) | enzyme activity, inhibitor |  |  | 0.00016
CC1(C)CC[C@]2(C(=O)O)CC[C@]3(C)C(=CC[C@@H]4[C@@]5(C)C[C@@H](O)[C@H](O)C(C)(C)[C@@H]5CC[C@]43C)[C@@H]2C1 | Angiotensin-converting enzyme (ACE, Oryctolagus cuniculus, UniProt P12822) | enzyme activity |  |  | 25.7 ± 0.99
O=C(Nc1ccccc1Oc1nc2ccccc2n2cnnc12)c1cccs1 | Catenin beta-1, with BCL9 HD2 (CTNNB1, Homo sapiens, UniProt P35222) | BCL9 binding, inhibitor, AlphaScreen |  |  | 7.38
Nc1ncnc2c1ncn2[C@@H]1O[C@H](COP(=O)(O)OP(=O)(O)OP(=O)(O)O)[C@@H](O)[C@H]1O | Inosine-5'-monophosphate dehydrogenase 2 (IMPDH2, Homo sapiens, UniProt P12268) |  |  |  | 45
